Assay results of several laboratories.
Numbers after ± are the reported error.
B1: UGT1A9 (Homo sapiens, UniProt O60656); chain GKLLVVPMDGSHWFTMRSVVEKLILRGHEVVVVMPEVSWQLGRSLNCTVKTYSTSYTLEDLDREFKAFAHAQWKAQVRSIYSLLMGSYNDIFDLFFSNCRSLFKDKKLVEYLKESSFDAVFLDPFDNCGLIVAKYFSLPSVVFARGILCHYLEEGAQCPAPLSYVPRILLGFSDAMTFKERVRNHIMHLEEHLLCHRFFKNALEIASEILQTPVTEYDLYSHTSIWLLRTDFVLDYPKPVMPNMIFIGGINCHQGKPLPMEFEAYINASGEHGIVVFSLGSMVSEIPEKKAMAIADALGKIPQTVLWRYTGTRPSNLANNTILVKWLPQNDLLGHPMTRAFITHAGSHGVYESICNGVPMVMMPLFGDQMDNAKRMETKGAGVTLNVLEMTSEDLENALKAVINDKSYKENIMRLSSLHKDRPVEPLDLAVFWVEFVMRHKGAPHLRPAAHDLTWYQYHSLDVIGFLLAVVLTVAFITFKCCAYGYRKCLGKKGRVKKAHKSKTH
B2: erenumab; V domains shown; sequence looked up; VH QVQLVESGGGVVQPGRSLRLSCAASGFTFSSFGMHWVRQAPGKGLEWVAVISFDGSIKYSVDSVKGRFTISRDNSKNTLFLQMNSLRAEDTAVYYCARDRLNYYDSSGYYHYKYYGMAVWGQGTTVTVSS; VL QSVLTQPPSVSAAPGQKVTISCSGSSSNIGNNYVSWYQQLPGTAPKLLIYDNNKRPSGIPDRFSGSKSGTSTTLGITGLQTGDEADYYCGTWDSRLSAVVFGGGTKLTVL
UniProt Q91YE5, sequence (whole entry, looked up): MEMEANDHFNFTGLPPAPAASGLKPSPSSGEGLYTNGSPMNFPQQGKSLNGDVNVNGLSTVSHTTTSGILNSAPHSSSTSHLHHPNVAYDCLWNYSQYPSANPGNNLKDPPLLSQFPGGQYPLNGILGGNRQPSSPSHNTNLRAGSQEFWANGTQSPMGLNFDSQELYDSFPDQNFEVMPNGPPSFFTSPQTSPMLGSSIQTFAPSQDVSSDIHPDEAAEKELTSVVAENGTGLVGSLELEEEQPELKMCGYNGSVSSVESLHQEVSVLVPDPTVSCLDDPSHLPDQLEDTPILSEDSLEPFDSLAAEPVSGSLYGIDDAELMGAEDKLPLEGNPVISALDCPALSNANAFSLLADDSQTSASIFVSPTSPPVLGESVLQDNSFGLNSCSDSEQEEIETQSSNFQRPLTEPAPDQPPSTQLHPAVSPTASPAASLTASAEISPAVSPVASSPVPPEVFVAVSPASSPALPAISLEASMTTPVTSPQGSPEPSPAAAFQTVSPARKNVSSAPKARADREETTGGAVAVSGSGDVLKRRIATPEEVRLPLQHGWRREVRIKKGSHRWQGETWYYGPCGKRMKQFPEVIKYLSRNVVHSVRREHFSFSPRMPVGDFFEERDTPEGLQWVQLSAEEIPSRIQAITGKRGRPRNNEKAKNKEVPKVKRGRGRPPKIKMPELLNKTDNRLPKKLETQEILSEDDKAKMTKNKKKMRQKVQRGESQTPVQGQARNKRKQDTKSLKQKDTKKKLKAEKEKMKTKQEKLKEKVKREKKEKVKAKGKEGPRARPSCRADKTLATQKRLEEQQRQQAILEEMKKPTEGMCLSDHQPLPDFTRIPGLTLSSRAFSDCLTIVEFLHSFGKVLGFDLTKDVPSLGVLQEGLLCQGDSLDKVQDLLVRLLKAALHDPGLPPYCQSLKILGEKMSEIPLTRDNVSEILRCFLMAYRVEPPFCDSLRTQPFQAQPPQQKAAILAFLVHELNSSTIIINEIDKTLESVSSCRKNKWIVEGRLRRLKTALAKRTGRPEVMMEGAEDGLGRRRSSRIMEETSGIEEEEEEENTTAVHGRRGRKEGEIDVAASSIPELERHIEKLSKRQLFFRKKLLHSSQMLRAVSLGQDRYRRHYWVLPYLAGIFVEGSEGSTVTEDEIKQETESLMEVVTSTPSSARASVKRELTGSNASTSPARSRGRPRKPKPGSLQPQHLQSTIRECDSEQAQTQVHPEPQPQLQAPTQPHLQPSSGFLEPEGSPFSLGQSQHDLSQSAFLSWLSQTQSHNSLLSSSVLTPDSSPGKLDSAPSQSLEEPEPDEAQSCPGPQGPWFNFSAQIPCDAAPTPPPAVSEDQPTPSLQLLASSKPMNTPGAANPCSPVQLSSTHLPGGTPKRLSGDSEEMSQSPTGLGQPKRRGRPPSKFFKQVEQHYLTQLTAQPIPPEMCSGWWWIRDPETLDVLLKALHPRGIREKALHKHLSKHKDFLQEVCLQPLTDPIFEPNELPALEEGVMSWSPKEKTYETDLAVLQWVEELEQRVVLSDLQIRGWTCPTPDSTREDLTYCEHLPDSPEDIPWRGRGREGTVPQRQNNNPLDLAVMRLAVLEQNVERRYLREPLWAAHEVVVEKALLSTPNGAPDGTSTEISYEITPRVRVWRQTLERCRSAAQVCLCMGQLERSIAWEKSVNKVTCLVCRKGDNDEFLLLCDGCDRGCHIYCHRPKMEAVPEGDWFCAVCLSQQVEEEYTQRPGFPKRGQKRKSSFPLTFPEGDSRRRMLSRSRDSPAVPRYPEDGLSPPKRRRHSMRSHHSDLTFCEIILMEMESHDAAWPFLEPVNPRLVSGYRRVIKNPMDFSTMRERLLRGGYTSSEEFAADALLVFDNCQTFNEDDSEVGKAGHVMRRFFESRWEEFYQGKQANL
UniProt P19466, sequence (whole entry, unmodified, looked up): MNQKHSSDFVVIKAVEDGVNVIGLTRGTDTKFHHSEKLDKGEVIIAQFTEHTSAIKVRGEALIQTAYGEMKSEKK
UniProt Q8MQJ9, sequence (whole entry, looked up): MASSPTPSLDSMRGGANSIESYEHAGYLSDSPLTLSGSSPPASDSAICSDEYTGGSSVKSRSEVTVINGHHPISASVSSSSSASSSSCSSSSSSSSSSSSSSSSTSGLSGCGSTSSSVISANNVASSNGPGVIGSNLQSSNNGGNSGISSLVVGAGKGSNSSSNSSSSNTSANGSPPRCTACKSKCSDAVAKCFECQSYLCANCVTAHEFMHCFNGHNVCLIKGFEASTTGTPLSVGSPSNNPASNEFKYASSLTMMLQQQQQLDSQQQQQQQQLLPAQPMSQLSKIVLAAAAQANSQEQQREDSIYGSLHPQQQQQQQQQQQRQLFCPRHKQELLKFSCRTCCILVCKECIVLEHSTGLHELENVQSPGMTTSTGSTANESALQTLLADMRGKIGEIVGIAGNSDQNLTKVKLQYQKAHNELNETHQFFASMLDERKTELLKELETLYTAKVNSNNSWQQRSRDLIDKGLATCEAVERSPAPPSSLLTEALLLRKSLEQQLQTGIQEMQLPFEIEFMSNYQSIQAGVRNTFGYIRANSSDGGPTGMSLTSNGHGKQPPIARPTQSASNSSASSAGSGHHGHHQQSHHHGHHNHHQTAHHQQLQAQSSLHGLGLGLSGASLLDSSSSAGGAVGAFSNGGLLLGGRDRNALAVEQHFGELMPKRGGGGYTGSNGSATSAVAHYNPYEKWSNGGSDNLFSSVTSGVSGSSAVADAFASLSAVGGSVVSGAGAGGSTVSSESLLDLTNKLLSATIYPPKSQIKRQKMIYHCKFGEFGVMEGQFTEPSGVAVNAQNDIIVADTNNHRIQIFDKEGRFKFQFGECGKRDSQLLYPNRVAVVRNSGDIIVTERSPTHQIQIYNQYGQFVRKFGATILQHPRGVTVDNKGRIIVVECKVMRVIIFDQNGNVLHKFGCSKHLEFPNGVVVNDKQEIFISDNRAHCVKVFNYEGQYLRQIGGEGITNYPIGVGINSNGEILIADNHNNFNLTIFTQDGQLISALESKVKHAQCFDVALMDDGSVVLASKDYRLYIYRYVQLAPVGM

pneumocandin K — MIC (Candida parapsilosis; broth microdilution, resazurin; ATCC 90018; 24 h, 35 °C): 12.8 µg/mL
GGGAGACCUAGCCUCAUAUAAUCGUUGUCCAGAAUUGUAUAUAUUCGUAGCAUAAGUUUUCCAAACAUUAUUUUGUUGUCGAAAAUUGUACAUAAGCCAAUUAAGCCGCUAAUUCU (ssRNA) — binding (brat 756-1037 (Drosophila melanogaster, UniProt Q8MQJ9); UV cross-linking MS): binds
CC(C)(C)OCC1NC(=O)C(C(=O)NC(C(=O)NC2C(=O)N3C2SC(C)(C)C3C(=O)O)c2ccccc2)=C1O (stereo not shown) — MIC (Escherichia coli; broth microdilution; BW25113, Mueller-Hinton broth; 18 h, without clavulanic acid): 50 µg/mL
AGUUCCAUGAUGUUUUCAAACUCUAUUACCUACAUUAUUUGAAC (structured RNA; hairpin, large stem-loop) — K1/2 (BAZ2A eAT-hook (Mus musculus, UniProt Q91YE5); MST; 50 nM RNA): 187 ± 10 nM
pneumocandin B0 — MIC (Candida glabrata; broth microdilution, resazurin; ATCC 2001; 24 h, 35 °C): 3.2 µg/mL
CC1(C)SC2C(NC(=O)C(NC(=O)C3=C(O)C(c4ccccc4)NC3=O)c3ccccc3)C(=O)N2C1C(=O)O (stereo not shown) — MIC (Escherichia coli; broth microdilution; BW25113, Mueller-Hinton broth; 18 h, without clavulanic acid): 100 µg/mL
pneumocandin A0 — MIC (Candida glabrata; broth microdilution, resazurin; ATCC 2001; 24 h, 35 °C): 1.6 µg/mL
CC1(C)SC2C(NC(=O)C(NC(=O)C3=C(O)C(Cc4ccccc4)NC3=O)c3ccccc3)C(=O)N2C1C(=O)O (stereo not shown) — MIC (Escherichia coli; broth microdilution; BW25113, Mueller-Hinton broth; together with: 2,2'-bipyridyl 30 µg/mL): 25 µg/mL
CC1(C)CC[C@]2(C(=O)O)CC[C@]3(C)C(=CC[C@@H]4[C@@]5(C)CC[C@H](O)C(C)(C)[C@@H]5CC[C@]43C)[C@@H]2C1 — MIC (Lodderomyces parapsilosis; microbial growth, broth dilution; ATCC22019; 48 h): 500 µg/mL
CN1CC(O)=C(C(=O)NC(C(=O)NC2C(=O)N3C2SC(C)(C)C3C(=O)O)c2ccccc2)C1=O (stereo not shown) — MIC (Acinetobacter baumannii; microbial growth, broth dilution; ATCC19606): 100 µg/mL
CCOC(=O)c1c(N)csc1-c1cn(-c2ccccc2)nc1-c1ccc(C)cc1 — MIC (Klebsiella pneumoniae; broth microdilution; clinical urinary isolate; compound gamma-irradiated 15 kGy): 0.125 ± 0.2 µg/mL
N#Cc1ccc(COc2ccc(C#Cc3ccc(C(F)(F)[C@](O)(Cn4cnnn4)c4ccc(F)cc4F)nc3)cc2)cc1 — MIC (Acanthamoeba polyphaga; cell growth, resazurin; 96 h, 28 °C): 0.25 µg/mL
CC1(C)SC2C(NC(=O)C(NC(=O)C3=C(O)C4(CC4)NC3=O)c3ccccc3)C(=O)N2C1C(=O)O (stereo not shown) — MIC (Acinetobacter baumannii; microbial growth, broth dilution; ATCC19606): 25 µg/mL
CTATTTCTCCTGGTAAGGAATCATCTGGTACATTTACATCATTACCACATATTGGACATTTTAATAGTACCATGATGGATCGAATAGAAATATAAAGTAAGCAGTTGAAAAGCTTTTATGAAATAAAAGGTTCGAAATTAGTACCAAACTCTAAGCACTATAGTACTGTTTGTACTTATAACGCCCTG (dsDNA) — binding (lysM 1-140 (Sulfolobus acidocaldarius, UniProt Q4JAQ1); EMSA; double-stranded DNA, one strand shown): binds
YGRKKRRQRRR (C-amide) — MIC (Candida parapsilosis; peptide, ATCC 22019; 24 h, 35 °C, dark): 12.5 µM
GAGUUGAGUUGAGUUGAGUUGAGUUGAGUUGAGUUGAGUUGAGUUGAGUUGAGUU (ssRNA; single strand) — Kd (mtrB full length assumed T30V/K56L (Bacillus subtilis, UniProt P19466); filter binding; together with: L-tryptophan 1 mM): 93 ± 7 nM
plantazolicin — MIC (Bacillus megaterium; 7A1; 12 h, 37 °C): > 48 µM
B1 (UGT1A9) — Vmax/Km (O=c1cc(-c2cccc(O)c2)oc2ccccc12; steady-state kinetics; pH 7.4, 37 °C): 458 µL/min/mg
N#CC(=Cc1ccccc1O)C1=NC(=O)C(=Cc2cn(-c3ccccc3)nc2-c2ccccc2)S1 — MIC (Acinetobacter baumannii; microbial growth, broth dilution): 0.48 µg/mL
TPDYLMALMNDKKLMSSLPNFSGIFNHLERLLDEEISRVRKDMYNDTLNGSTEK (Qki 14-67 C35S/Q20A (Mus musculus, UniProt Q9QYS9)) — melting temperature (itself; CD thermal melting; 50 µM): 65 °C
CC1(C)S[C@@H]2[C@H](NC(=O)[C@H](N)c3ccccc3)C(=O)N2[C@H]1C(=O)O — MIC (Lactiplantibacillus plantarum subsp. plantarum; broth microdilution; ATCC 10241, MRS medium; 24 h, 37 °C): 0.62 ± 0.6 µg/mL
COc1ccc(-c2nc3cc(-c4nc5cc(N6CCN(C)CC6)ccc5[nH]4)ccc3[nH]2)cc1 — MIC (Candida parapsilosis; fungal growth; ATCC 22019; MIC-0 endpoint): 3.9 to 7.8 µg/mL
CC1(C)S[C@@H]2[C@H](NC(=O)C(C(=O)O)c3ccccc3)C(=O)N2[C@H]1C(=O)O (stereo partly shown) — MIC (Acinetobacter baumannii; microbial growth, broth dilution; ATCC19606): 100 µg/mL
C[C@@H](c1ncncc1F)[C@](O)(Cn1cncn1)c1ccc(F)cc1F — MIC (Acanthamoeba polyphaga; cell growth, resazurin; 96 h, 28 °C): 0.25 µg/mL
CC1NC(=O)C(C(=O)NC(C(=O)NC2C(=O)N3C2SC(C)(C)C3C(=O)O)c2ccccc2)=C1O (stereo not shown) — MIC (Escherichia coli; broth microdilution; BW25113, Mueller-Hinton broth; together with: 2,2'-bipyridyl 30 µg/mL): 100 µg/mL
C=C(C)[C@@H]1CC[C@]2(C)CC[C@]3(C)[C@H](CC[C@@H]4[C@@]5(C)CCC(=O)C(C)(C)[C@@H]5CC[C@]43C)[C@@H]12 — MIC (Lodderomyces parapsilosis; microbial growth, broth dilution; ATCC22019; 48 h): 500 µg/mL
CCCCCCCCCC(=O)N[C@@H](CCN)C(=O)N[C@H](C(=O)N[C@H](C(=O)N[C@H](CC(C)C)C(=O)N[C@@H](CC(C)C)C(=O)N[C@@H](CCN)C(=O)N[C@@H](C(=O)N[C@@H](CC(C)C)C(=O)N[C@@H](CO)C(N)=O)C(C)C)[C@@H](C)O)[C@@H](C)CC — MIC (Acinetobacter baumannii; checkerboard, refers to: rifampicin; ATCC 19606; sensitization to antibiotics, together with: compound at 4 µg/mL): > 0.125 µg/mL
pneumocandin J — MIC (Candida glabrata; broth microdilution, resazurin; ATCC 2001; 24 h, 35 °C): 3.2 µg/mL
EVEPSDTIENVKAKIQ — MIC (Bacillus megaterium; peptide, 899, Luria broth; overnight, 37 °C): > 100 µM
CC1(C)SC2C(NC(=O)C(NC(=O)C3=C(O)CN(c4ccccc4)C3=O)c3ccccc3)C(=O)N2C1C(=O)O (stereo not shown) — MIC (Acinetobacter baumannii; microbial growth, broth dilution; ATCC19606): 25 µg/mL
B2 (erenumab) — pKB (CALCR/RAMP1 on cells (Homo sapiens); cAMP production, antagonist, global Gaddum-Schild; antibody, HEK293S; together with: αCGRP): 7.04

Excerpt of the above:
COc1ccc(-c2nc3cc(-c4nc5cc(N6CCN(C)CC6)ccc5[nH]4)ccc3[nH]2)cc1 — MIC (Candida parapsilosis; fungal growth; ATCC 22019; MIC-0 endpoint): 3.9 to 7.8 µg/mL
CC1(C)S[C@@H]2[C@H](NC(=O)C(C(=O)O)c3ccccc3)C(=O)N2[C@H]1C(=O)O (stereo partly shown) — MIC (Acinetobacter baumannii; microbial growth, broth dilution; ATCC19606): 100 µg/mL
C[C@@H](c1ncncc1F)[C@](O)(Cn1cncn1)c1ccc(F)cc1F — MIC (Acanthamoeba polyphaga; cell growth, resazurin; 96 h, 28 °C): 0.25 µg/mL
